Measured values gathered from unrelated publications.
Each line is one published result; not all experiments were run side by side. “And” joins repeats or separate records; there may be more than shown. ± marks the error that the study gave.
SLC6A6 Y138A: Sodium- and chloride-dependent taurine transporter (SLC6A6, Homo sapiens, UniProt P31641, Y138A)
Dehaloperoxidase B ferric: Dehaloperoxidase B, ferric (Amphitrite ornata, UniProt Q9NAV7)
MT-CYB/UQCRFS1: MT-CYB/UQCRFS1 (Homo sapiens, UniProt P00156+P47985)
TOP2A: DNA topoisomerase 2-alpha (TOP2A, Homo sapiens, UniProt P11388)
GAPDH: Glyceraldehyde-3-phosphate dehydrogenase (GAPDH, Homo sapiens, UniProt P04406)
KEAP1 Kelch domain: Kelch-like ECH-associated protein 1, Kelch domain (KEAP1, Homo sapiens, UniProt Q14145)

| Structure (SMILES) | target | test | system | setting | how to read | endpoint | value |
| --- | --- | --- | --- | --- | --- | --- | --- |
| CC[C@@H]1[C@H](F)C(=O)N[C@@H]1COc1nccc2cc(C(N)=O)c(OC)cc12 | Serine/threonine-protein kinase VRK2 (VRK2, Homo sapiens, UniProt Q86Y07) | ATP-site probe binding, ActivX profiling | THP-1 cell lysate | 0.04 mM, Lys2 site |  | inhibition | -6% |
| Cc1cc(NS(=O)(=O)c2ccc(N=NN(O)c3ccccc3)cc2)no1 | α-glucosidase, rat intestine | enzyme activity |  | 120 µg/mL, added: 4-nitrophenyl α-D-glucopyranoside |  | inhibition | 32.5 ± 1.43% |
| Nc1nc2[nH]cc(CCc3ccc(C(=O)N[C@@H](CCC(=O)O)C(=O)O)cc3)c2c(=O)[nH]1 | Thymidylate synthase (TYMS, Homo sapiens, UniProt P04818) | from literature Kd |  |  |  | binding efficiency index | 15 |
| O=S(=O)(O)C1CCNCC1 | SLC6A6 Y138A | binding, microscale thermophoresis |  | 125 µM, room temperature, added: 50 nM labelled protein | higher = more binding | normalised MST signal | -0.0026 |
| CC[C@H](C)[C@@H]1NC(=O)[C@H](C)NC(=O)[C@H]([C@@H](C)CC)NC(=O)[C@H](CCC(N)=O)NC(=O)[C@H](C)NC(=O)[C@H](CCCNC(=N)N)NC(=O)[C@H](C(C)C)NC(=O)[C@H](CC(C)C)NC(=O)[C@H](CCC(=O)O)NC(=O)[C@H](CCCNC(=N)N)NC(=O)CNC(=O)[C@@H](NC(=O)[C@H](CC(C)C)NC(=O)[C@H](CCCCN)NC(=O)[C@@H](NC(=O)[C@@H](NC(=O)[C@H](CCC(=O)O)NC(=O)[C@H](CCC(=O)O)NC(=O)[C@H](CCSC)NC(=O)[C@H](Cc2c[nH]c3ccccc23)NC(=O)[C@H](CO)NC(=O)[C@@H](N)CC(=O)O)C(C)C)[C@@H](C)CC)CSSC[C@@H]2NC(=O)[C@@H](NC(=O)[C@H](CCCCN)NC(=O)[C@H](CC(N)=O)NC(=O)[C@H](C)NC(=O)[C@H](CC(C)C)NC(=O)[C@H](C)NC(=O)[C@H](CO)NC(=O)[C@H](Cc3ccc(O)cc3)NC(=O)[C@H](CC(C)C)NC(=O)[C@H](CCC(N)=O)NC(=O)c3ccc(-c4c5ccc(=[N+](C)C)cc-5oc5cc(N(C)C)ccc45)c(C(=O)[O-])c3)CSSC[C@H](NC(=O)CNC(=O)[C@H](C(C)C)NC(=O)[C@H](Cc3c[nH]cn3)NC2=O)C(=O)N[C@@H]([C@@H](C)O)C(=O)N[C@@H](CCCCN)C(=O)N[C@@H](CCCNC(=N)N)C(=O)N[C@@H](CO)C(=O)N[C@@H](CC(C)C)C(=O)N[C@@H](C)C(=O)N[C@@H](CCCNC(=N)N)C(=O)N[C@@H](Cc2ccccc2)C(=O)N[C@H](C(=O)O)CSSC[C@@H](C(=O)NCC(=O)N[C@@H](CCSC)C(=O)N[C@@H](CO)C(=O)N[C@H](C(=O)N[C@@H](Cc2c[nH]c3ccccc23)C(=O)N[C@@H](CO)C(=O)O)[C@@H](C)O)NC1=O | Relaxin receptor 1 (RXFP1, Homo sapiens, UniProt Q9HBX9, F76A/Y80A) | binding, NanoBRET |  | concentration not given, added: relaxin 10 µM |  | fast dissociation fraction | 60.3% |
| O=C1C=Nc2ccc(Br)cc21 | Dehaloperoxidase B ferric | product, HPLC |  | added: 5-bromoindole 500 µM, H2O2 50 µM |  | share of total products | 40.1% |
| O=C(O)c1ccc(Nc2ncc3c(n2)-c2ccc(Cl)cc2C(c2c(F)cccc2F)=NC3)cc1 | NEK7(h) | kinase activity |  | 1 µM |  | remaining activity | 99% |
| C=CC(=O)N1CCC[C@@H](n2nc(-c3ccc(Oc4ccccc4)cc3)c3c(N)ncnc32)C1 | Muscle, skeletal receptor tyrosine-protein kinase (MUSK, Homo sapiens, UniProt O15146) |  |  | 0.1 µM |  | remaining activity | 158% |
| Cc1ccc(N(O)N=Nc2ccc(S(=O)(=O)Nc3cc(C)on3)cc2)cc1 | α-glucosidase, rat intestine | enzyme activity |  | 60 µg/mL, added: 4-nitrophenyl α-D-glucopyranoside |  | inhibition | 22.5 ± 1.54% |
| COc1cc(/C=C/c2ccc(O)cc2)cc(OC)c1 | O-methyltransferase (Sorghum bicolor, UniProt A0A1B6PFV1) | biolayer interferometry |  | added: saturating SAM | reference: SAM-bound over apo | koff ratio | 2.38 fold |
| NC(=O)NO | MT-CYB/UQCRFS1 | complex III-dependent respiration, Seahorse XF96 | HCT-116 | 400 µM, 24 h | reference: control | oxygen consumption rate | 86.8 ± 7.03% |
| CCCN(O)N=Nc1ccc(S(=O)(=O)Nc2onc(C)c2C)cc1 | α-glucosidase, rat intestine | enzyme activity |  | 300 µg/mL, added: 4-nitrophenyl α-D-glucopyranoside |  | inhibition | 62.5 ± 0.72% |
| O=c1nc(SCc2cc(F)cc(C(F)(F)F)c2)nc(SCc2ccc3nc(OCCN4CCOCC4)ccc3c2)[nH]1 | TOP2A | decatenation |  | 7.8 µM, replicate 1 |  | decatenated DNA | 90.5% |
| COc1cc(-c2cc(C(C)=O)n3ccccc23)cc(OC)c1Cn1ccnc1 | Peregrin (BRPF1, Homo sapiens, UniProt P55201) |  |  |  |  | ΔTm | -3 °C |
| Nc1ncnc2c1ncn2[C@@H]1O[C@H](COP(=O)(O)OP(=O)(O)OP(=O)(O)O)[C@@H](O)[C@H]1O | P2X purinoceptor 7 (P2rx7, Rattus norvegicus, UniProt Q64663, I214A/Q143A/R125A) | ion current, agonist, two-electrode voltage clamp | Xenopus laevis oocytes | 100 µM, triple mutant | reference: 100 µM compound response | normalized current | 1 |
| NC(=O)NOCCCCCCCCCCCCCCCC[P+](c1ccccc1)(c1ccccc1)c1ccccc1.O=C([O-])C(F)(F)F | MT-CYB/UQCRFS1 | complex III-dependent respiration, Seahorse XF96 | HCT-116 | 0.5 µM, 24 h | reference: control | oxygen consumption rate | 79.4% |
| CC[N+](CC)(CC)CC(=O)Nc1c(C)cccc1C | PKD2L1 (Homo sapiens, UniProt Q9P0L9) | ion current, whole-cell patch clamp |  | 100 µM, extracellular application |  | time to steady-state inhibition | > 7 min |
| O=C1Nc2ccc(Br)cc2C1=O | Dehaloperoxidase B ferric | product, HPLC |  | added: 5-bromoindole 500 µM, H2O2 1000 µM |  | share of total products | 4.5% |

| Structure (SMILES) | target | test | system | setting | how to read | endpoint | value |
| --- | --- | --- | --- | --- | --- | --- | --- |
| O=C(COP(=O)(O)O)[C@@H](O)[C@H](O)[C@H](O)COP(=O)(O)O | GAPDH | thermal proteome profiling | HepG2 cell lysate | concentration not given, 57 over 37 °C | reference: compound over control | thermal stability ratio | 3.83 and 3.91 and 3.39 |
| NC(=O)NOCCCCCCCCCCCC[P+](c1ccccc1)(c1ccccc1)c1ccccc1.O=C([O-])C(F)(F)F | MT-CYB/UQCRFS1 | complex III-dependent respiration, Seahorse XF96 | HCT-116 | 5 µM, 24 h | reference: control | oxygen consumption rate | 32.5 ± 2.39% |
| NCCCC(=O)O | SLC6A6 Y138A | binding, microscale thermophoresis |  | 500 µM, room temperature, added: 50 nM labelled protein | higher = more binding | normalised MST signal | -0.00232 |
| CC[C@@H](C)[C@@H](NC(=O)[C@@H](Cc1ccc(O)cc1)NC(=O)[C@H]1CCCN1C(=O)[C@@H](CCCNC(=N)N)NC(=O)[C@H](N)Cc1c[nH]cn1)C(=O)N[C@H](C)C(=O)N[C@H](Cc1c[nH]cn1)C(=O)N[C@H](CCCNC(=N)N)C(=O)N[C@@H](C(=O)N[C@H](Cc1ccc(O)cc1)C(=O)N[C@H](CO)C(=O)N[C@H](Cc1ccccc1)C(N)=O)C(C)C | Transferrin receptor protein 1 (Tfrc, Mus musculus, UniProt Q62351) | flow cytometry | DC2.4 | 48 h, pH 6, replicate 3, unit not given | reference: 0 h | surface TFRC expression | 0.915 |
| CCCCC[C@H](O)/C=C/[C@H]1[C@H](O)CC(=O)[C@@H]1C/C=C\CCCC(=O)O | Prostaglandin E2 receptor EP1 subtype (PTGER1, Homo sapiens, UniProt P34995, G92A/P39A) | IP1 accumulation, agonist | AD293 | 1 h | reference: wild type receptor | Emax | 98.3 ± 4.22% |
| CN(C)C(=O)C(CCN1CCC(O)(c2ccc(Cl)cc2)CC1)(c1ccccc1)c1ccccc1 | Calcium-activated potassium channel subunit alpha-1, with LRRC26 γ1 subunit (KCNMA1, Homo sapiens, UniProt Q12791) | BK current, inside-out patch clamp | excised membrane patch | 1 µM, γ1 subunit coexpressed, added: nominally 0 Ca2+ cytosolic |  | effective gating valence | 1.32 elementary charges |
| O=c1nc(SCc2cc(F)cc(C(F)(F)F)c2)nc(SCc2ccc3nc(Cl)ccc3c2)[nH]1 | TOP2A | DNA cleavage |  | 7.8 µM, added: etoposide 50 µM |  | linear DNA | 16.9% |
| C[C@@H](O)[C@H](NC(=O)[C@H](CS)NC(=O)[C@@H](N)CO)C(=O)O | GAPDH | spectrophotometric Vmax |  | 10 µM, added: enzyme 10 nM | reference: vehicle | enzyme activity | 102% and 100% and 98.6% |
| CC[C@H](C)[C@H](NC(=O)[C@@H]1CCCN1C(=O)[C@H](CC(C)C)NC(=O)[C@H](Cc1ccccc1)NC(=O)[C@H](CCC(=O)O)NC(=O)CNC(=O)[C@@H](NC(=O)[C@H](CCC(=O)O)NC(=O)[C@H](CCC(=O)O)NC(=O)[C@H](CC(=O)O)NC(=O)[C@H](CC(C)C)NC(=O)[C@H](CCC(N)=O)NC(=O)[C@H](CC(C)C)NC(=O)[C@H](CCC(N)=O)NC(=O)[C@H](C)NC(=O)[C@H](Cc1ccccc1)NC(C)=O)[C@@H](C)O)C(=O)N[C@@H](CCC(N)=O)C(=O)N1CCC[C@H]1C(=O)N[C@@H](C)C(=O)N[C@@H](CCC(N)=O)C(N)=O | KEAP1 Kelch domain | binding, ITC |  | pH 7, 298.15 K |  | ΔH | -17.56 ± 0.046 kcal/mol |
| COc1ccc(C[C@H](N)C(=O)N[C@H]2[C@@H](O)[C@H](n3cnc4c(N(C)C)ncnc43)O[C@@H]2CO)cc1 | Protein transport protein Sec61 subunit alpha isoform 1 (Homo sapiens, UniProt P61619) | Sec61-dependent translocation, inhibitor, refers to: CD4 signal peptide-FLuc reporter | HEK293 | concentration not given | reference: mock | FLuc/RLuc ratio | 0.193 |
| CCC1(O)CCCN(C(=O)c2ccc(-c3ccc(F)c(NC(=O)CCl)c3)cc2)C1 (centres unmarked) | DNA dC->dU-editing enzyme APOBEC-3B, C-terminal domain (Homo sapiens, UniProt Q9UH17) | covalent modifier, intact protein mass spectrometry, refers to: adduct +26104 Da |  | 125 µM, 3 h, 5-fold molar excess |  | protein adduct | 4.5% |
| CCCCC[S+]([O-])c1n[nH]c(N)n1 (centres unmarked) | YTH domain-containing family protein 2 (YTHDF2, Homo sapiens, UniProt Q9Y5A9) | binding, affinity selection mass spectrometry |  |  | reference: other proteins in batch | fold enrichment | 1.49 |
| CC(=C/C(=O)O)/C=C/C=C(\C)C1C=C2C(C)(C)CCCC2(C)O1 (centres unmarked) | Rhodopsin (RHO, Homo sapiens, UniProt P08100, T17M) | ER retention, immunostaining co-localization, refers to: opsin with calnexin | COS-7 transfected T17M | 10.00 µM |  | Pearson correlation coefficient | 0.5 |
| C[N+](C)(C)Cc1cccc(N=Nc2cccc(C[N+](C)(C)C)c2)c1 | muscarinic receptor, frog | potassium current, antagonist | atrial trabeculae | added: carbachol |  | Schild plot slope | 1 |
| CC(=O)N[C@@H](C)C(=O)N[C@@H](CC(N)=O)C(=O)NCC(=O)N[C@@H](CC(N)=O)C(=O)N[C@@H](C)C(=O)N[C@@H](CCC(=O)O)C(=O)N[C@@H](CC(N)=O)C(=O)N[C@@H](CCC(=O)O)C(=O)N[C@@H](CCC(=O)O)C(=O)N[C@@H](CC(N)=O)C(=O)NCC(=O)N[C@@H](CCC(=O)O)C(=O)N[C@@H](CCC(N)=O)C(=O)N[C@@H](CCC(=O)O)C(=O)N[C@@H](C)C(=O)N[C@@H](CC(=O)O)C(=O)N[C@@H](CC(N)=O)C(=O)N[C@@H](CCC(=O)O)C(=O)N[C@H](C(=O)N[C@@H](CC(=O)O)C(N)=O)C(C)C | KEAP1 Kelch domain | binding, ITC |  | pH 7, 298.15 K |  | ΔH | -14.3 ± 0.153 kcal/mol |
| C=CC(=O)N1CCC(COCC(=O)N2CCN(c3nc(-c4cnc(N)nc4C(F)F)nc(N4CCOC[C@@H]4C)n3)CC2)CC1 | Tyrosine-protein kinase ABL1, phosphorylated (ABL1, Homo sapiens, UniProt P00519, T315I) | KINOMEscan |  | 1 µM |  | remaining binding | 95% |
| Cc1ccc(S(=O)(=O)Nc2ccc(F)cc2NS(=O)(=O)c2ccc(C)cc2)cc1 | Protein lin-28 homolog A (Mus musculus, UniProt Q8K3Y3) |  |  |  |  | Hill slope | -1.1 |
